Experimental data gathered from unrelated publications.
Each numbered part is a random draw from the data of one study; scales do not carry over between parts.
UniProt Q9ZSY8, sequence (whole entry, looked up): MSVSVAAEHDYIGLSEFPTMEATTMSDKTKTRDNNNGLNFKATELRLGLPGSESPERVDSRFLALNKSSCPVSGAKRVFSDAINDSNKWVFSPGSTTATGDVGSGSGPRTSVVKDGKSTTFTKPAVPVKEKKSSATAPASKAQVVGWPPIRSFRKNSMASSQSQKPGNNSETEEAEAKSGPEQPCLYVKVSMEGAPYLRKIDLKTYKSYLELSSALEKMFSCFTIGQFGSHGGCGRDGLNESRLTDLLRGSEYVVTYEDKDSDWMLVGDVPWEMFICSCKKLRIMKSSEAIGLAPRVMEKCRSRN
UniProt O23661, sequence (whole entry, looked up): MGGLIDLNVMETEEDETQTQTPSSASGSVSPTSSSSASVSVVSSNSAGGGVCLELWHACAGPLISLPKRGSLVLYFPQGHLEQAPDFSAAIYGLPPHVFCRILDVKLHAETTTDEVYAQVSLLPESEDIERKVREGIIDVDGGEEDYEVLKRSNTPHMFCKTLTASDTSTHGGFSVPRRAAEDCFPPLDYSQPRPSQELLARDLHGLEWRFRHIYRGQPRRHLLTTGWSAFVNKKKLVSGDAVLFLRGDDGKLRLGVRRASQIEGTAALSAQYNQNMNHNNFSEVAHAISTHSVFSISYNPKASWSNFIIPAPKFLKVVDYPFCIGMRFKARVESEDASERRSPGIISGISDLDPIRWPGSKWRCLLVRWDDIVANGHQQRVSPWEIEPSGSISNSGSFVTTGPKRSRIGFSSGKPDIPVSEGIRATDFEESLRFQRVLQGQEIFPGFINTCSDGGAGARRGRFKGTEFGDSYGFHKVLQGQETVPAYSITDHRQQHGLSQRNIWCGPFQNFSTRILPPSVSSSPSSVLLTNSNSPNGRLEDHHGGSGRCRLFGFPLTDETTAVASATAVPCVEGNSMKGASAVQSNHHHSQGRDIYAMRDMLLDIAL

Series 1 — method: universal PBM; molecule type: double-stranded DNA, one strand shown; matrix: in vitro; tested at: 600 nM; reading: higher = stronger binding; measurement: E-score
Target: Sal-like protein 4, full length isoform A (SALL4, Homo sapiens, UniProt Q9UJQ4, residues 1-1053)
UniProt Q9UJQ4, sequence (whole entry, looked up): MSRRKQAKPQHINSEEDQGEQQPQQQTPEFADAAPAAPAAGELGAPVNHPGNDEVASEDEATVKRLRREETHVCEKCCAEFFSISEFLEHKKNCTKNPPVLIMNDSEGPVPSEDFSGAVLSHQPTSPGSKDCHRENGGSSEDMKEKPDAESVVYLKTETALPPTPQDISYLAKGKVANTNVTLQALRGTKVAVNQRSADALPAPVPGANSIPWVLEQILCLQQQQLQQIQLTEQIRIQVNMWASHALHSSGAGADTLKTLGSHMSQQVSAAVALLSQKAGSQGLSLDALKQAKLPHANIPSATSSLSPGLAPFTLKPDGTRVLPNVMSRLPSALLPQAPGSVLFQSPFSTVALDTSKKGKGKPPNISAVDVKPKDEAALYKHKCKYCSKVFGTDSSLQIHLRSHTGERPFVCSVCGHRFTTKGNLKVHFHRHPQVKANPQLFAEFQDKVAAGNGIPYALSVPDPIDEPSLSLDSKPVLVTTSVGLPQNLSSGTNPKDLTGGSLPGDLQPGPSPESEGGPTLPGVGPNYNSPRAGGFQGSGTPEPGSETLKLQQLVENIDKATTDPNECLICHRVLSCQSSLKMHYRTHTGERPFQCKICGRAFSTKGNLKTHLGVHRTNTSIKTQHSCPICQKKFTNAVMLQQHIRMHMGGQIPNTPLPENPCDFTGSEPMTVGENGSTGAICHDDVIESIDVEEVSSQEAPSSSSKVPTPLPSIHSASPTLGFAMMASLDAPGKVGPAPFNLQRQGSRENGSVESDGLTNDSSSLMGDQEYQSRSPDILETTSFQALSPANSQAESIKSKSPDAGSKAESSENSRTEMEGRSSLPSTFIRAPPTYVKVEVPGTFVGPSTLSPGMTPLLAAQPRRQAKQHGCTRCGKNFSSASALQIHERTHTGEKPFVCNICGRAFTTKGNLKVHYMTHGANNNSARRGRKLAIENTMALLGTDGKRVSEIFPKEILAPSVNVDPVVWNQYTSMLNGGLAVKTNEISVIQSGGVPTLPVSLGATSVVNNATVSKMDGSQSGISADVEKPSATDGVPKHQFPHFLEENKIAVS
Setting: 8-mer, flanks averaged, mean of replicates
ACGTTTGC: -0.0786
TGTGATAA: 0.292
AACGTGAA: 0.0565
CACCGTCG: -0.268
ATCCGTAG: -0.0335
AGTCGACG: -0.0344
GCGCCGGA: -0.374
AGATTGCA: 0.145
CCCGGGTC: -0.408
CCAAAGGC: -0.194
ATTAATCA: 0.309
CACATCAA: 0.0803
CGTCACAA: -0.0173
ACCGTCCC: -0.233
AGGCATAA: 0.219
ACGACGAC: -0.0772
AGCATAGC: 0.105
AGGGTGAT: -0.0742
AATCTAGT: 0.136

Series 2 — method: protein-binding microarray; molecule type: double-stranded DNA, one strand shown; matrix: in vitro; tested at: 0.8 µM; setting: whole 60-bp probe, no competitor; reading: higher = stronger binding; measurement: fluorescence intensity; constant ends, left off below: … GTCTTGATTCGCTTGACGCTGCTG
Target: Centromere-binding protein 1, full length, N-terminal tag (CBF1, Saccharomyces cerevisiae, UniProt P17106, residues 1-351)
UniProt P17106, sequence (whole entry, looked up): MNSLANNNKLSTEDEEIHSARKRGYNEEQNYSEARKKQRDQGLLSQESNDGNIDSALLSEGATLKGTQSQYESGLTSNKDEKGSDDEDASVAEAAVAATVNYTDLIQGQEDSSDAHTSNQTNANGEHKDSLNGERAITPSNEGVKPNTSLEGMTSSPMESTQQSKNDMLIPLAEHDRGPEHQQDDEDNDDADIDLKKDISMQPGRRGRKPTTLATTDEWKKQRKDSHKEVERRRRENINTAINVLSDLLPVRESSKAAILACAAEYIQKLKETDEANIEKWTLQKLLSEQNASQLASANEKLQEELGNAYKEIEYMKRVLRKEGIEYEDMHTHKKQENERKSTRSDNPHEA
CTAGACATCCACAAAGGTGACAGAACAAAATCATTC: 511 a.u.
CTAAATTCAATAGATCGCCTGATGTTTTCTGTGTTC: 537 a.u.
GAATTTTATCTCTCTCTGATGACGTGATATCTTTAG: 823 a.u.
CTACCATATTAATAAGACCTGATGCGATTCCGGTTC: 490 a.u.
CTACGTTCAAGCTATTCACCTGTTACAGCAGTATTC: 539 a.u.
GAACTTATCGCTTTGCACGCGACTCTTTTTTCTTAG: 893 a.u.
GAATTCCAAGGTAACCACGTCACATTATACTCATAG: 671 a.u.
CTATGGTTGTACTTCCTCGTGTGTCAGATACTTTTC: 570 a.u.
GAAGAAAGCTTGCATCATGAAATGAAGGATTTTTAG: 499 a.u.
GAAAGACGCACATACCGCGTGCGCGGAACTTTTTAG: 569 a.u.
CTAATGTGAATAGATCATGAGACGCGAAGCCCTTTC: 608 a.u.
GAATTTTGAGTTTTGCGTGCGTTATCTACTGGGTAG: 479 a.u.
GAACCTCGTACTCATGTGATGGAGAAAGGAATTTAG: 1200 a.u.
CTAGGCTCTTCAAACCATGTGACACCAAACTTCTTC: 3860 a.u.
GAAATAGTCCAAACCGTGACAACTATGCAGGGATAG: 658 a.u.
TGTACGAAGCTATTGGTGGTGACTATAGTAGTTAGG: 536 a.u.
CTAATATCGCTAGCATGCGTGAGTTATGGATAATTC: 551 a.u.
CTAGATTTTGGAAGTTTCACGATATCGATAATGTTC: 553 a.u.
CTAATTTCTTTGCCACCCGTGATCCAAAGCCGTTTC: 1070 a.u.
GAACGAATAGAGTATCAGCTGACGGAATGGAGATAG: 2010 a.u.
CCTAACTACTATAATCTCCTGAGATAGCTTCGTACA: 526 a.u.
CCTAACTACTATAATCTGATGCTATAGCTTCGTACA: 505 a.u.

Series 3 — organism: Saccharomyces cerevisiae; observed: peptide binding; method: yeast competitive growth sequencing; molecule type: peptide; strain: cyclin F-Cln2 fusion; tested at: concentration not given; setting: RxL motif peptides; reading: direction not given; measurement: binding score
SNARRSLNFGGST: 7.59
PPVKRRLDLETDH: 6.83
PPARRRLRLSVDE: 8.25
PPHRRRLLFACSP: 7.52

Series 4 — method: protein-binding microarray; molecule type: double-stranded DNA, one strand shown; matrix: in vitro; tested at: not given; reading: higher = stronger binding; measurement: E-score
Target: Transcription factor SOX-2, HMG box (SOX2, Homo sapiens, UniProt P48431, residues 19-118)
UniProt P48431, sequence (19-118, looked up): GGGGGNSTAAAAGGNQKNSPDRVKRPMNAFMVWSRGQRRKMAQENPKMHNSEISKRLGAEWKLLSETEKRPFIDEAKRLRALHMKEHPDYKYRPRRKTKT
Setting: k-mer, scored over probes, only values ≥0.25
ACTATTA: 0.333
AAATTAT: 0.385
TATTACA: 0.26
ATAATCA: 0.335
CAAAAAA: 0.271
AACCATT: 0.267
AATAATA: 0.442
CAATAGC: 0.363
TAATAAA: 0.301
CAAATAA: 0.258
AAGACAA: 0.339
ATTGTGG: 0.353
AATATTG: 0.332
ATTATTC: 0.405
GCAATTA: 0.302
AAACGGC: 0.322
AATTGCA: 0.297

Series 5 — method: protein binding microarray; molecule type: double-stranded DNA, one strand shown; matrix: in vitro; tested at: not given; relative to: not given; reading: higher = stronger binding; measurement: E-score
Target: Histone acetyltransferase KAT6A, winged helix 2, GST fusion (KAT6A, Homo sapiens, UniProt Q92794, residues 85-181)
Setting: 8-mer, flanks averaged, mean of 2 arrays, mostly near background
Construct (chain): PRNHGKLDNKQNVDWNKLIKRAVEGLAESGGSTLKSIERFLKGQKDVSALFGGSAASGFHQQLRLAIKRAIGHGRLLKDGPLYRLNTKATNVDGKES
CCCGCATC: 0.126
AATCTTGA: -0.0708
CCTCGTTC: -0.0796
CCGATAGA: -0.129
GCACTATA: 0.0305
ATTTCGCA: 0.156
ACTCGGCC: 0.092
CTGGACTA: -0.0425
AAGATGCG: -0.116
GACCTAGA: -0.0508
ACCCGACG: 0.0514
GTGCGGCA: 0.102
ATCAGACG: -0.12
CAAAATCG: -0.0377
GAGCCATC: -0.0705
CAAGTTCC: -0.0971
ACAAATTC: 0.0355
AAGATAAT: -0.0137
GTCCAGAC: -0.144
CGCACGTC: -0.111
AACTACAC: 0.00938
GGTTGATA: 0.167
CACAGCGA: 0.187
TCCTTTAA: -0.0723
ATAGCCTA: 0.0622

Series 6 — method: RNA Bind-n-Seq; molecule type: RNA; matrix: in vitro; tested at: 365 nM; relative to: no-protein control; reading: higher = stronger binding; measurement: RBNS enrichment (R)
Target: RNA binding protein fox-1 homolog 2, RRM domain, GST-SBP tag (RBFOX2, Homo sapiens, UniProt O43251-10, residues 100-194)
Setting: natural RNA segment, single round, ends assumed
Constant ends, left off below: GGGAGUUCUACAGUCCGACGAUC … UGGAAUUCUCGGGUGCCAA
Residues (chain): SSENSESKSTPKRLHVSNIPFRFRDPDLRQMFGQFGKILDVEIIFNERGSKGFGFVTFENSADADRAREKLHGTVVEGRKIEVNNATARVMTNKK
CCACAGUAUCACACGUGGAACCGCAGACAGGGCCCAGAAGCUUUAGAGGUAUGAGGCUGCAGAACCGGAGAGAUUUUCCUCUGUGCAGUGCUCUCUGGCUAAAGUCACGG: 0.417
GGGACAGGGCCUUUUCAUUAAUGAGAGAACAUGUCACAAGGAAAGCAAGAGAUAAAAACCAACAAAACCUAACCUGGUGACCACAUGUCUGUGACUCCAUGUACUCAUCC: 0.348
GGGCAGAAAUCUAUAGAUUCUUUUGAAAUGUAAAUAAAAAGAUUGUAAACGCCCUAUAGUUUCUAUACAGCAUGCUGCAUUGUCAAUUUGGUAGCUUUUUCUCUUUCUUU: 38.5
GCCAAAGGACAAGCCAUUGAUCCCAAAGCCUCGUAUGCCCACCAGGGCCCCUGGUGCCACUGCGUAGUGUUCACUAACACCCCGCCUCACCAGGCAGGAGCCCCGACCCC: 0.235
UCCUCUGAAGCAACUGAAGGCCGAGCCUUUAGAGCAACCAUUGUCAACCUUUGUGGGUCGCCUAAGAGCAUCGCAAACCAGAUAUUUACAUUAUGAUUCAUAACAGUGAC: 0.336
GCACAGGGCAGUUAGCCAGCUCAAGUUCUUUUUCAGAGAAAGGGACUUGGCCAGUGGUUUAAGUACCUGCCCCUUCACCUCUCAGACGAGGCAGCUGACGAGGCAGCUGG: 0.361
UUAUUAACAGUUAUUAGGUUGUCAUUUAAAAAUAAAGUUCCUUUAUAUUUCUGUCCCAUCAGGAAAACUGAAGGAUAUGGGGAAUCAUUGGUUAUCUUCCAUUGUGUUUU: 0.408
UUCUGUUGGCCACCAGACUUGCAUUUCAGCCUCUGUCAUAAUGCUCUGCCCUCCCUCCCCCGAAGGUCUCUGUGGUGAUGACCGCUCUCCCCUGCCCCUCCCCGCUUCCU: 0.725
GAUUAUUUGAUAAUUGGUUAGAUCAUACUUGUAAAUUUUAAUGCUUUGUGUAAUUGGUUUGAAAAACAGUGAAAUGGGUAAACGCAAAACUUUUGUACUUUAUUACGAGU: 0.852
AGGAGGAGGAGAAGGAGCCCCUCAGCAGAGUGGUGCAGUUUCGCUCAGAGCUUGUCUCCUUGGCUUCCAACCCCAGAAAUGCCUGCUGGGCCUUAAGCUUUCCAGGGGCC: 1.29
CUUGCCAGUUCUUCAGCUCUAGGACUUGUAGCUUUAAGCAAACGGUGUGGCAUGGGUUGAGUGUGGCCACCUGCAGGAUGUGCAGGGCUGCCUCAGAAGCUGGCUGGGGA: 1.18
UCUUUCUUUUAAAACUUGUUUCAUUUAUGAUCAUGUAGAGAGCCACUAGGAGGCCUGCAGUUAUUUUUGAAUGUGAAAAUGCAUUUGCGUUCAUCUUGUCUAUUUUUUCU: 0.559

Single results of other studies — method: two-hybrid; relative to: out of 4 tests; reading: higher = firmer interaction
Partner: ARF16 570-670 (Arabidopsis thaliana, UniProt Q93YR9)
B1: ARF10 575-693 (Arabidopsis thaliana, UniProt Q9SKN5); chain LQGLETGHCKVFMESEDVGRTLDLSVIGSYQELYRKLAEMFHIEERSDLLTHVVYRDANGVIKRIGDEPFSDFMKATKRLTIKMDIGGDNVRKTWITGIRTGENGIDASTKTGPLSIFA
B2: IAA14 (Arabidopsis thaliana, UniProt Q38832); chain MNLKETELCLGLPGGTETVESPAKSGVGNKRGFSETVDLKLNLQSNKQGHVDLNTNGAPKEKTFLKDPSKPPAKAQVVGWPPVRNYRKNVMANQKSGEAEEAMSSGGGTVAFVKVSMDGAPYLRKVDLKMYTSYKDLSDALAKMFSSFTMGSYGAQGMIDFMNESKVMDLLNSSEYVPSYEDKDGDWMLVGDVPWPMFVESCKRLRIMKGSEAIGLAPRAMEKFKNRS
Sequence (chain, as in one of the studies): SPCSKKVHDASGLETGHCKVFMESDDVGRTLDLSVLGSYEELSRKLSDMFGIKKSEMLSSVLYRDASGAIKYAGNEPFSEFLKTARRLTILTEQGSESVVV
B1 (ARF10 575-693) — positive tests: 0
IAA27 (Arabidopsis thaliana, UniProt Q9ZSY8) — positive tests: 0
B2 (IAA14) — positive tests: 0
ETT (Arabidopsis thaliana, UniProt O23661) — positive tests: 0
